Published values from different studies.
Each line is one published result; not all experiments were run side by side. ≈ marks a conversion by molar mass, not a printed value.

| Compound | organism | test | test system | setting | how to read | quantity | value |
| --- | --- | --- | --- | --- | --- | --- | --- |
| CO[C@H]1/C=C/O[C@@]2(C)Oc3c(C)c(O)c4c(O)c(c(/C=N/N5CCN(C)CC5)c(O)c4c3C2=O)NC(=O)/C(C)=C\C=C\[C@H](C)[C@H](O)[C@@H](C)[C@@H](O)[C@@H](C)[C@H](OC(C)=O)[C@@H]1C | Mycobacterium tuberculosis | – | H37Rv inhA M103I mutant | concentration not given | reference: wild type H37Rv | MIC fold change | 1 fold |
| [H]/N=C(/N)N[C@H]1[C@H](O)[C@@H](O)[C@H](O[C@@H]2O[C@@H](C)[C@](O)(C=O)[C@H]2O[C@@H]2O[C@@H](CO)[C@H](O)[C@@H](O)[C@@H]2NC)[C@@H](N/C(N)=N\[H])[C@@H]1O | Mycobacterium tuberculosis | Alamar blue | MDR 210 | – | – | MIC | 1.72 µM (≈ 1 µg/mL) |
| CCCCCCC#Cc1cncc(-c2nnc(SCc3cc([N+](=O)[O-])cc([N+](=O)[O-])c3)n2C)c1 | Mycobacterium tuberculosis | MABA | Erdman wild type | – | – | IC50 | 0.31 µM |
| [Ca+2] | Halyomorpha halys | outward current, inhibitor, electrophysiology | – | concentration not given | – | inhibition | 21.3% |
| NC(=S)NN=Cc1ccc(OC(=O)CN2C(=O)CSC2=O)cc1 | Mycobacterium tuberculosis | Alamar blue | MDR 210 | – | – | MIC | 31.6 to 45.7 µM (≈ 11.1 to 16.1 µg/mL) |
| FC(F)(F)c1ccc(CCNc2cc(-c3ccccn3)nc3nncn23)cc1 | Mycobacterium tuberculosis | bacterial growth | – | – | – | IC90 | 1.7 µM |
| CC[C@@H](CO)NCCN[C@@H](CC)CO | Mycobacterium tuberculosis | – | – | 4 x MIC | – | resistance mutation frequency | 3.38e-07 mutants per cell |
| CC(CNc1cc(-c2ccccn2)nc2nncn12)c1ccccc1 (stereo not shown) | Mycobacterium tuberculosis | bacterial growth | – | – | – | IC90 | > 100 µM |
| CCCCCCC#Cc1cncc(-c2nnc(SCc3ccc(Cl)cc3)n2C)c1 | Mycobacterium tuberculosis | MABA | Erdman wild type | – | – | IC50 | 6.03 µM |
| NC(=S)NN=Cc1ccc(OC(=O)CN2C(=O)CSC2=O)c(Br)c1 | Mycobacterium tuberculosis | Alamar blue | MDR 210 | – | – | MIC | 74.2 µM (≈ 32 µg/mL) |
| CS(=O)(=O)Nc1ncn(-c2cc(F)c(COc3ccc(OS(=O)(=O)F)cc3)c(F)c2)n1 | Mycobacterium tuberculosis | – | H37Rv pks13 knockdown | – | reference: non-depleted strain | susceptibility fold increase | 11 fold |
| NNC(=O)c1ccncc1 | Mycobacterium tuberculosis | – | H37Rv | before serial passaging | – | MIC90 | 0.24 µM (≈ 0.0329 µg/mL) |
| CO[C@H]1/C=C/O[C@@]2(C)Oc3c(C)c(O)c4c(O)c(c(/C=N/N5CCN(C)CC5)c(O)c4c3C2=O)NC(=O)/C(C)=C\C=C\[C@H](C)[C@H](O)[C@@H](C)[C@@H](O)[C@@H](C)[C@H](OC(C)=O)[C@@H]1C | Mycobacterium tuberculosis | – | – | 10 x MIC | – | resistance mutation frequency | 1.06e-07 mutants per cell |
| NNC(=O)c1ccncc1 | Mycobacterium tuberculosis | – | H37Rv inhA M103V mutant | concentration not given | reference: wild type H37Rv | MIC fold change | 1 fold |
| CCOc1cc(C=NNC(N)=S)ccc1OC(=O)CN1C(=O)CSC1=O | Mycobacterium tuberculosis | Alamar blue | MDR 210 | – | – | MIC | 80.7 µM (≈ 32 µg/mL) |
| NNC(=O)c1ccncc1 | Mycobacterium tuberculosis | time-kill | H37Rv | concentration not given, 120 h | – | CFU reduction | 4 log10 CFU |

A few entries again:
| Compound | organism | test | test system | setting | how to read | quantity | value |
| --- | --- | --- | --- | --- | --- | --- | --- |
| CC[C@@H](CO)NCCN[C@@H](CC)CO | Mycobacterium tuberculosis | – | – | 4 x MIC | – | resistance mutation frequency | 3.38e-07 mutants per cell |
